Assay results gathered from unrelated publications.
A part holds a random share of what one study measured. Values joined by “and” are separate records of one study, mostly repeats; a detail may differ.
Sequence of UniProt P60842 (whole entry, looked up): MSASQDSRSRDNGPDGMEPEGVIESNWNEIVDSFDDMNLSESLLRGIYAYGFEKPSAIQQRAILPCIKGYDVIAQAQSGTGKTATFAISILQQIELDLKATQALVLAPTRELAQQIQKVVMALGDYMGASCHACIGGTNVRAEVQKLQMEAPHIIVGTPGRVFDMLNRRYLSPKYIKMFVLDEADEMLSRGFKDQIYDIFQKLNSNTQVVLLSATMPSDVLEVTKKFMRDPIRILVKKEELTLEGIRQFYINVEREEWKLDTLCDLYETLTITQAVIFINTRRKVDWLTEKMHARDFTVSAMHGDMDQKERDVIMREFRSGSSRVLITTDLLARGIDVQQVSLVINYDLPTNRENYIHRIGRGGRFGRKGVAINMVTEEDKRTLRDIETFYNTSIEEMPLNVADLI
Sequence of UniProt Q15418 (whole entry, looked up): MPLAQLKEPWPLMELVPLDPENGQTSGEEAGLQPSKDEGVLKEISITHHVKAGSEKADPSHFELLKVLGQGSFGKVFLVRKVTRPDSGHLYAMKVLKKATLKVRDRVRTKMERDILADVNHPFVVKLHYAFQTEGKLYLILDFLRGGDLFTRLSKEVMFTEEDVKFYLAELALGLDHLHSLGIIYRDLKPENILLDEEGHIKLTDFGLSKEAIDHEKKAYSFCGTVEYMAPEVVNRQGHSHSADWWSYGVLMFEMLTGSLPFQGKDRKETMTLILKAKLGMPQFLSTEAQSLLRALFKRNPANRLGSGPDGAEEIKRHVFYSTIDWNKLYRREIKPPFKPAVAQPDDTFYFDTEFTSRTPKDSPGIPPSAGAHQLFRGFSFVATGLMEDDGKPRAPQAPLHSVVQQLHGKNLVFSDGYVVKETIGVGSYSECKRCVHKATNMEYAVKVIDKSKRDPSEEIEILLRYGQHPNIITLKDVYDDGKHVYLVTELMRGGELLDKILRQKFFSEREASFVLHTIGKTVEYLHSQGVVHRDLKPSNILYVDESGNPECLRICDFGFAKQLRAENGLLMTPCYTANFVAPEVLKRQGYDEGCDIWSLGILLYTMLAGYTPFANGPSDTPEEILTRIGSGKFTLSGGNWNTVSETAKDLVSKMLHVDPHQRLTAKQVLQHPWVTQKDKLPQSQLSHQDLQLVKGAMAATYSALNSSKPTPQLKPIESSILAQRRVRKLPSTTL
Sequence of UniProt Q9UPE1 (whole entry, looked up): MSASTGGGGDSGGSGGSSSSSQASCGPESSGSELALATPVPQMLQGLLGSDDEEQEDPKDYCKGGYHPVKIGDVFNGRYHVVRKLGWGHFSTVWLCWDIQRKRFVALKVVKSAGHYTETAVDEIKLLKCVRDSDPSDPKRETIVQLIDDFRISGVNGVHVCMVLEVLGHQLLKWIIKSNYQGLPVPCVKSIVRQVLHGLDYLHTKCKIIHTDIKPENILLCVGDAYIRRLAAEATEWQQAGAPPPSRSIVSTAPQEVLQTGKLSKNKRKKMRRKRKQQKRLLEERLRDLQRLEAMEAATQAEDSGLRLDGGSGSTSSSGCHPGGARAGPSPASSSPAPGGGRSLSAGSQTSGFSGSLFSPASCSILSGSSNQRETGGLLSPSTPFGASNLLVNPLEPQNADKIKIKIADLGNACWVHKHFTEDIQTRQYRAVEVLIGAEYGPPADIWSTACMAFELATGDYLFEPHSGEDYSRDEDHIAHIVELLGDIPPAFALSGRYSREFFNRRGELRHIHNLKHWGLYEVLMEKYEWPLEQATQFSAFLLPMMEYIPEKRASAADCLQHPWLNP

Sample 1
SMILES: CCCCC[C@@H](O)CC(=O)N[C@@H]1C(=O)N[C@H](CCCNC(=N)N)C(=O)N[C@@H](CO)C(=O)NCC(=O)N(C)[C@H](Cc2ccccc2)C(=O)N[C@@H](CC(C)C)C(=O)N[C@H](CCCNC(=N)N)C(=O)N[C@@H](CO)C(=O)N[C@H]([C@H](C)O)C(=O)N[C@H](Cc2c[nH]c3ccccc23)C(=O)N[C@@H]([C@@H](C)CC)C(=O)NCC(=O)O[C@@H]1C
Organism: Staphylococcus aureus
Strain: USA300
Concentration: 2 x MIC
| setting | viable cells |
| --- | --- |
| 120 min | 1500 CFU/mL and 1000 CFU/mL and 800 CFU/mL |
| 30 min | 2000 CFU/mL and 1700 CFU/mL and 1500 CFU/mL |
| 60 min | 1400 CFU/mL and 800 CFU/mL and 1500 CFU/mL |
| 300 min | 600 CFU/mL and 800 CFU/mL and 400 CFU/mL |

Sample 2
Target: Calcium/calmodulin-dependent protein kinase type II subunit alpha (CAMK2A, Homo sapiens, UniProt Q9UQM7)
Sequence of UniProt Q9UQM7 (whole entry, looked up): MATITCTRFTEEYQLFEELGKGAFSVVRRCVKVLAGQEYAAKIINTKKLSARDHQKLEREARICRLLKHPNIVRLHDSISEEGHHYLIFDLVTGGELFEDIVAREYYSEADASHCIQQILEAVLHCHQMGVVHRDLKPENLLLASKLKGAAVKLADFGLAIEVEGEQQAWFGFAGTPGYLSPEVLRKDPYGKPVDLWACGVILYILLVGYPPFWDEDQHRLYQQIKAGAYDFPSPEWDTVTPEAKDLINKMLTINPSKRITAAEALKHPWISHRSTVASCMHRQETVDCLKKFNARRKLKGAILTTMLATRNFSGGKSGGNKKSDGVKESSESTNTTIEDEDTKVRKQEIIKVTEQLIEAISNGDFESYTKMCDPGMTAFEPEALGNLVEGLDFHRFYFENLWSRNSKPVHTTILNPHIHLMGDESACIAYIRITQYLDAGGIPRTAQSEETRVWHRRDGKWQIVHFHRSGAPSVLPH
Observed: enzyme activity
Mode: inhibitor
Concentration: 10 µM
| Structure (SMILES) | inhibition [%] |
| --- | --- |
| C=C[C@H]1CN2CC[C@H]1C[C@H]2[C@H](O)c1ccnc2ccccc12 | -15 |
| NC(=O)CN1CC(O)CC1=O (stereo not shown) | -2 |
| CC[C@H]1C[C@H]2CN3CCc4c([nH]c5ccccc45)[C@](C(=O)OC)(C2)[C@H]13 | -28 |
| COc1ccc(C(=O)N2CCCC2=O)cc1 | -12 |
| CC[C@@]1(O)C(=O)OCc2c1cc1n(c2=O)Cc2cc3c(OC)cccc3nc2-1 | -30 |
| Cc1nccc2c1[nH]c1ccccc12 | 8 |

Single results of other studies
| Structure (SMILES) | target | assay | setting | how to read | quantity | result |
| --- | --- | --- | --- | --- | --- | --- |
| O=c1[nH]c2ccccc2n1C1CCN(Cc2ccc(-c3[nH]c4cc5ncnc5cc4nc3-c3ccccc3)cc2)CC1 | SRSF protein kinase 3 (SRPK3, Homo sapiens, UniProt Q9UPE1) | enzyme activity, inhibitor | 0.5 µM | relative to: control | remaining activity | 107% |
| COC(=O)[C@@H]1[C@@H](c2ccccc2)[C@]2(c3ccc(OC)cc3)Oc3cc(OC)cc(OC)c3[C@@]1(O)[C@@H]2O | Eukaryotic initiation factor 4A-I (EIF4A1, Homo sapiens, UniProt P60842) | RNA clamping, fluorescence polarization | concentration not given, added: FAM-labelled poly r(AG)8 RNA | higher = more clamping | fluorescence polarization change | 8.2 mP and 7.1 mP and 11.9 mP and 7.6 mP |
| CN[C@@H]1C[C@H]2O[C@@](C)([C@@H]1OC)n1c3ccccc3c3c4c(c5c6ccccc6n2c5c31)C(=O)NC4 | Ribosomal protein S6 kinase alpha-1 (RPS6KA1, Homo sapiens, UniProt Q15418) | enzyme activity, inhibitor | 0.5 µM | relative to: control | remaining activity | 3.52% and 0.432% |
